# Measurements pooled from the literature.
# Protocols differ between the studies behind these lines. Numbers after ± are the reported error.
Compound,test,test system,setting,measurement,result
N=C(N)NCCC[C@@H]1NC(=O)[C@H](CCCCNC(=O)c2ccc(CNC34CNCCNCC(N)(CNCCNC3)CNCCNC4)cc2)NC(=O)[C@@H](Cc2ccc(O)cc2)NC(=O)[C@H](CC(=O)O)NC(=O)CNC1=O [copper-64 labelled],microPET,"male athymic nude mouse, PC-3 tumour, liver","intravenous, 7.4 MBq, 48 h",tissue uptake,0.73 ± 0.13 %ID/g
C[C@@H](O)[C@@H](CO)NC(=O)[C@@H](CCCNC(=N)N)NC(=O)[C@@H]1CCCN1C(=O)[C@@H]1CSSC[C@H](NC(=O)[C@H](Cc2ccccc2)NC(=O)CN2CCN(CC(=O)O)CCN(CC(=O)O)CCN(CC(=O)O)CC2)C(=O)N[C@@H](Cc2ccc(O)cc2)C(=O)N[C@@H](Cc2ccccc2)C(=O)N[C@@H](CCC(N)=O)C(=O)N[C@@H](CC(N)=O)C(=O)N1 [gallium-68 labelled],,"Wistar rat, healthy, submandibular gland","intravenous, 8 MBq, 120 min",tissue uptake,0.04 %ID/g
CC(C)C[C@H](NC(=O)C[C@H](O)[C@H](CC(C)C)NC(=O)[C@H](Cc1c[nH]cn1)NC(=O)CNC(=O)[C@@H](NC(=O)[C@H](C)NC(=O)[C@H](Cc1c[nH]c2ccccc12)NC(=O)[C@H](CCC(N)=O)NC(=O)[C@@H](Cc1ccccc1)NC(=O)CCNC(=O)CCSc1nnc(NCCC(=O)NCCC(=O)NCCCC[C@H](NC(=O)N[C@@H](CCC(=O)O)C(=O)O)C(=O)O)c2c1CCC1C(CC2)C1COC(=O)NCCNC(=O)CC[C@H](C(=O)O)N1CCN(CC(=O)O)CCN(CC(=O)O)CC1)C(C)C)C(N)=O (some centres unmarked) [gallium-68 labelled],,"athymic NMRI nude mouse, spleen","intravenous, dose not given, 2 h, added: bombesin 480 nmol (GRPR blocking)",tissue uptake,0.82 %ID/g
O=C(O)C[C@H](NC(=O)[C@H](CC(=O)O)NC(=O)[C@H](CC(=O)O)NC(=O)[C@H](CC(=O)O)NC(=O)[C@H](CC(=O)O)NC(=O)[C@H](CC(=O)O)NC(=O)[C@H](CC(=O)O)NC(=O)[C@H](CC(=O)O)NC(=O)[C@H](CC(=O)O)NC(=O)[C@H](CC(=O)O)NC(=O)[C@H](CC(=O)O)NC(=O)[C@H](CCCCNC(=O)c1ccc(C(=O)NCCOCCOB2BBBBBB3BBBB3B2)cc1)NC(=O)CN1CCN(CC(=O)O)CCN(CC(=O)O)CCN(CC(=O)O)CC1)C(=O)O [gallium-67 labelled],gamma counting,"ddY mouse, male, 6 weeks old, liver","intravenous, 37 kBq, 10 min",tissue uptake,1.69 %ID/g
CCCCCCCCCC(=O)N[C@@H](Cc1c[nH]c2ccccc12)C(=O)N[C@H](CC(N)=O)C(=O)N[C@@H](CC(=O)O)C(=O)N[C@@H]1C(=O)NCC(=O)N[C@@H](CCCNC(=O)CCC(=O)N2Cc3ccccc3-c3c(nnn3CCC[C@H](NC(=O)CCCCC[N+]3=C(C=CC4=CC(=CC=C5N(C)c6ccccc6C5(C)C)CCC4)C(C)(C)c4ccccc43)C(=O)NCCCCNC(=O)CCC(=O)N3Cc4ccccc4-c4c(nnn4CCOCCOCCOCCNC(=O)CN4CCN(CC(=O)NCCNC(=O)c5cccc(O)c5O)CCN(CC(=O)NCCNC(=O)c5cccc(O)c5O)CCN(CC(=O)NCCNC(=O)c5cccc(O)c5O)CC4)-c4ccccc43)-c3ccccc32)C(=O)N[C@@H](CC(=O)O)C(=O)N[C@H](C)C(=O)N[C@@H](CC(=O)O)C(=O)NCC(=O)N[C@H](CO)C(=O)N[C@@H]([C@H](C)CC(=O)O)C(=O)N[C@@H](CC(=O)c2ccccc2N)C(=O)O[C@@H]1C,,mouse plasma,"1 µM, up to 240 min, pH 7.4, 37 °C",half-life,35 min
Cc1ccccc1NC(=O)Nc1ccc(CC(=O)N[C@@H](CCCCNC(=O)/C=C/c2cccnc2)C(=O)N[C@@H](CCCC(=O)O)C(=O)NC2(C(=O)NCCOCCOCCOCCOCC(=O)N[C@@H](CCCCNC(=S)Nc3ccc(CCCN(CCN4CCN(CP(=O)(O)O)CCN(CP(=O)(O)O)CC4)CC(=O)O)cc3)C(N)=O)CCCCC2)cc1 [gallium-68 labelled],,PBS,"2 h, 37 °C",intact tracer,> 95%
CC[C@H](C)[C@H](NC(=O)[C@H](Cc1ccccc1)NC(=O)[C@H](CCC(=O)O)NC(=O)[C@H](CCCNC(=N)N)NC(=O)[C@H](C)NC(=O)[C@H](C)NC(=O)[C@H](CCC(N)=O)NC(=O)[C@H](CCC(=O)O)NC(=O)[C@H](CCC(=O)O)NC(=O)[C@H](CC(C)C)NC(=O)[C@H](Cc1ccc(O)cc1)NC(=O)[C@H](CO)NC(=O)[C@H](CO)NC(=O)[C@@H](NC(=O)[C@H](CC(=O)O)NC(=O)[C@H](CO)NC(=O)[C@@H](NC(=O)[C@H](Cc1ccccc1)NC(=O)[C@@H](NC(=O)CNC(=O)[C@H](CCC(=O)O)NC(=O)[C@H](C)NC(=O)CCc1c[nH]cn1)[C@@H](C)O)[C@@H](C)O)C(C)C)C(=O)N[C@@H](C)C(=O)N[C@@H](Cc1c[nH]c2ccccc12)C(=O)N[C@@H](CC(C)C)C(=O)N[C@H](C(=O)N[C@@H](CCCNC(=N)N)C(=O)NCC(=O)N[C@@H](CCCNC(=N)N)C(=O)N[C@@H](CCCCNC(=O)COCCOCCNC(=O)COCCOCCNC(=O)CC[C@H](NC(=O)CCCCCCCCCCCCCCCCC(=O)O)C(=O)O)C(=O)NCC(=O)NCC(=O)N[C@@H](CO)C(=O)N[C@@H](CCCCNc1c(NCCCCCN(O)C(=O)CCC(=O)NCCCCCN(O)C(=O)CCC(=O)NCCCCCN(O)C(C)=O)c(=O)c1=O)C(=O)O)C(C)C [zirconium-89 labelled],,"rat, knee","intravenous, 3 nmol/kg, 24 h",tissue uptake,0.23 %ID/g
COc1cccc2c1C(=O)c1c(O)c3c(c(O)c1C2=O)C[C@@](O)(C(=O)CO)C[C@@H]3O[C@H]1C[C@H](NC(=O)[C@@H]2CCCN2C(=O)CNC(=O)[C@H](CC(C)C)NC(=O)[C@H](C)NC(=O)CP(=O)(O)O)[C@H](O)[C@H](C)O1,,"healthy mice, plasma","intravenous, 849.5 mg/kg",AUC,923 µM·h

# A few entries again:
Compound,test,test system,setting,measurement,result
CC(C)C[C@H](NC(=O)C[C@H](O)[C@H](CC(C)C)NC(=O)[C@H](Cc1c[nH]cn1)NC(=O)CNC(=O)[C@@H](NC(=O)[C@H](C)NC(=O)[C@H](Cc1c[nH]c2ccccc12)NC(=O)[C@H](CCC(N)=O)NC(=O)[C@@H](Cc1ccccc1)NC(=O)CCNC(=O)CCSc1nnc(NCCC(=O)NCCC(=O)NCCCC[C@H](NC(=O)N[C@@H](CCC(=O)O)C(=O)O)C(=O)O)c2c1CCC1C(CC2)C1COC(=O)NCCNC(=O)CC[C@H](C(=O)O)N1CCN(CC(=O)O)CCN(CC(=O)O)CC1)C(C)C)C(N)=O (some centres unmarked) [gallium-68 labelled],,"athymic NMRI nude mouse, spleen","intravenous, dose not given, 2 h, added: bombesin 480 nmol (GRPR blocking)",tissue uptake,0.82 %ID/g
